Assay results gathered from unrelated publications.
Lines come from different studies, so protocols differ. Several values in a cell are separate wells, animals, samples, runs or records.
UniProt Q9UM07, sequence (whole entry, looked up): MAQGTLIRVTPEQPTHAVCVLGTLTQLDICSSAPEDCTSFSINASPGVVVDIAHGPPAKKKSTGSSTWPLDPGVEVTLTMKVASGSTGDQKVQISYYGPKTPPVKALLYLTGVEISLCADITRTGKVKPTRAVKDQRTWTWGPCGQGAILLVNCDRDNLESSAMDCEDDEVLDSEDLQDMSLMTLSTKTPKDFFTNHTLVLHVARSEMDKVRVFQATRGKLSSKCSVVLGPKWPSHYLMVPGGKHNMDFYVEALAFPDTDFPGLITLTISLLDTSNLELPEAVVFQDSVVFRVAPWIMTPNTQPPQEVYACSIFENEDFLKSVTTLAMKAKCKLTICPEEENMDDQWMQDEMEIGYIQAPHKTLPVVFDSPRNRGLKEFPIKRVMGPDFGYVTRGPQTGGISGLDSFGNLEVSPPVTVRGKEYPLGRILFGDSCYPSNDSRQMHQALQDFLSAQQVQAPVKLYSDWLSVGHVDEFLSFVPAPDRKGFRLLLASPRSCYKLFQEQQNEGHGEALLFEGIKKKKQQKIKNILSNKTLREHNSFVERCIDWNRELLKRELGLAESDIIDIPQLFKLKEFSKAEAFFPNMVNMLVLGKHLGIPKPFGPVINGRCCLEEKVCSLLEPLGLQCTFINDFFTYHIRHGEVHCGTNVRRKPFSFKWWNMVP
UniProt Q9UH17, sequence (whole entry, looked up): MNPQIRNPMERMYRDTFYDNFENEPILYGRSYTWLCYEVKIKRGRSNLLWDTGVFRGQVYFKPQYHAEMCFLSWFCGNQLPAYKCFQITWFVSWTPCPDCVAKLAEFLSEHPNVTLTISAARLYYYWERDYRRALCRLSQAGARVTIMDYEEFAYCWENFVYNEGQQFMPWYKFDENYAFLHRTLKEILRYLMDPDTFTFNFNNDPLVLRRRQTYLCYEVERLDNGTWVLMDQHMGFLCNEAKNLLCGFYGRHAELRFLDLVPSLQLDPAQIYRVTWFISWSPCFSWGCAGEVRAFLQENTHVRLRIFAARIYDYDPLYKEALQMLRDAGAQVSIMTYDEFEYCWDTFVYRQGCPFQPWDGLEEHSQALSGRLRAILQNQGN
UniProt Q32ZE1, sequence (whole entry, looked up): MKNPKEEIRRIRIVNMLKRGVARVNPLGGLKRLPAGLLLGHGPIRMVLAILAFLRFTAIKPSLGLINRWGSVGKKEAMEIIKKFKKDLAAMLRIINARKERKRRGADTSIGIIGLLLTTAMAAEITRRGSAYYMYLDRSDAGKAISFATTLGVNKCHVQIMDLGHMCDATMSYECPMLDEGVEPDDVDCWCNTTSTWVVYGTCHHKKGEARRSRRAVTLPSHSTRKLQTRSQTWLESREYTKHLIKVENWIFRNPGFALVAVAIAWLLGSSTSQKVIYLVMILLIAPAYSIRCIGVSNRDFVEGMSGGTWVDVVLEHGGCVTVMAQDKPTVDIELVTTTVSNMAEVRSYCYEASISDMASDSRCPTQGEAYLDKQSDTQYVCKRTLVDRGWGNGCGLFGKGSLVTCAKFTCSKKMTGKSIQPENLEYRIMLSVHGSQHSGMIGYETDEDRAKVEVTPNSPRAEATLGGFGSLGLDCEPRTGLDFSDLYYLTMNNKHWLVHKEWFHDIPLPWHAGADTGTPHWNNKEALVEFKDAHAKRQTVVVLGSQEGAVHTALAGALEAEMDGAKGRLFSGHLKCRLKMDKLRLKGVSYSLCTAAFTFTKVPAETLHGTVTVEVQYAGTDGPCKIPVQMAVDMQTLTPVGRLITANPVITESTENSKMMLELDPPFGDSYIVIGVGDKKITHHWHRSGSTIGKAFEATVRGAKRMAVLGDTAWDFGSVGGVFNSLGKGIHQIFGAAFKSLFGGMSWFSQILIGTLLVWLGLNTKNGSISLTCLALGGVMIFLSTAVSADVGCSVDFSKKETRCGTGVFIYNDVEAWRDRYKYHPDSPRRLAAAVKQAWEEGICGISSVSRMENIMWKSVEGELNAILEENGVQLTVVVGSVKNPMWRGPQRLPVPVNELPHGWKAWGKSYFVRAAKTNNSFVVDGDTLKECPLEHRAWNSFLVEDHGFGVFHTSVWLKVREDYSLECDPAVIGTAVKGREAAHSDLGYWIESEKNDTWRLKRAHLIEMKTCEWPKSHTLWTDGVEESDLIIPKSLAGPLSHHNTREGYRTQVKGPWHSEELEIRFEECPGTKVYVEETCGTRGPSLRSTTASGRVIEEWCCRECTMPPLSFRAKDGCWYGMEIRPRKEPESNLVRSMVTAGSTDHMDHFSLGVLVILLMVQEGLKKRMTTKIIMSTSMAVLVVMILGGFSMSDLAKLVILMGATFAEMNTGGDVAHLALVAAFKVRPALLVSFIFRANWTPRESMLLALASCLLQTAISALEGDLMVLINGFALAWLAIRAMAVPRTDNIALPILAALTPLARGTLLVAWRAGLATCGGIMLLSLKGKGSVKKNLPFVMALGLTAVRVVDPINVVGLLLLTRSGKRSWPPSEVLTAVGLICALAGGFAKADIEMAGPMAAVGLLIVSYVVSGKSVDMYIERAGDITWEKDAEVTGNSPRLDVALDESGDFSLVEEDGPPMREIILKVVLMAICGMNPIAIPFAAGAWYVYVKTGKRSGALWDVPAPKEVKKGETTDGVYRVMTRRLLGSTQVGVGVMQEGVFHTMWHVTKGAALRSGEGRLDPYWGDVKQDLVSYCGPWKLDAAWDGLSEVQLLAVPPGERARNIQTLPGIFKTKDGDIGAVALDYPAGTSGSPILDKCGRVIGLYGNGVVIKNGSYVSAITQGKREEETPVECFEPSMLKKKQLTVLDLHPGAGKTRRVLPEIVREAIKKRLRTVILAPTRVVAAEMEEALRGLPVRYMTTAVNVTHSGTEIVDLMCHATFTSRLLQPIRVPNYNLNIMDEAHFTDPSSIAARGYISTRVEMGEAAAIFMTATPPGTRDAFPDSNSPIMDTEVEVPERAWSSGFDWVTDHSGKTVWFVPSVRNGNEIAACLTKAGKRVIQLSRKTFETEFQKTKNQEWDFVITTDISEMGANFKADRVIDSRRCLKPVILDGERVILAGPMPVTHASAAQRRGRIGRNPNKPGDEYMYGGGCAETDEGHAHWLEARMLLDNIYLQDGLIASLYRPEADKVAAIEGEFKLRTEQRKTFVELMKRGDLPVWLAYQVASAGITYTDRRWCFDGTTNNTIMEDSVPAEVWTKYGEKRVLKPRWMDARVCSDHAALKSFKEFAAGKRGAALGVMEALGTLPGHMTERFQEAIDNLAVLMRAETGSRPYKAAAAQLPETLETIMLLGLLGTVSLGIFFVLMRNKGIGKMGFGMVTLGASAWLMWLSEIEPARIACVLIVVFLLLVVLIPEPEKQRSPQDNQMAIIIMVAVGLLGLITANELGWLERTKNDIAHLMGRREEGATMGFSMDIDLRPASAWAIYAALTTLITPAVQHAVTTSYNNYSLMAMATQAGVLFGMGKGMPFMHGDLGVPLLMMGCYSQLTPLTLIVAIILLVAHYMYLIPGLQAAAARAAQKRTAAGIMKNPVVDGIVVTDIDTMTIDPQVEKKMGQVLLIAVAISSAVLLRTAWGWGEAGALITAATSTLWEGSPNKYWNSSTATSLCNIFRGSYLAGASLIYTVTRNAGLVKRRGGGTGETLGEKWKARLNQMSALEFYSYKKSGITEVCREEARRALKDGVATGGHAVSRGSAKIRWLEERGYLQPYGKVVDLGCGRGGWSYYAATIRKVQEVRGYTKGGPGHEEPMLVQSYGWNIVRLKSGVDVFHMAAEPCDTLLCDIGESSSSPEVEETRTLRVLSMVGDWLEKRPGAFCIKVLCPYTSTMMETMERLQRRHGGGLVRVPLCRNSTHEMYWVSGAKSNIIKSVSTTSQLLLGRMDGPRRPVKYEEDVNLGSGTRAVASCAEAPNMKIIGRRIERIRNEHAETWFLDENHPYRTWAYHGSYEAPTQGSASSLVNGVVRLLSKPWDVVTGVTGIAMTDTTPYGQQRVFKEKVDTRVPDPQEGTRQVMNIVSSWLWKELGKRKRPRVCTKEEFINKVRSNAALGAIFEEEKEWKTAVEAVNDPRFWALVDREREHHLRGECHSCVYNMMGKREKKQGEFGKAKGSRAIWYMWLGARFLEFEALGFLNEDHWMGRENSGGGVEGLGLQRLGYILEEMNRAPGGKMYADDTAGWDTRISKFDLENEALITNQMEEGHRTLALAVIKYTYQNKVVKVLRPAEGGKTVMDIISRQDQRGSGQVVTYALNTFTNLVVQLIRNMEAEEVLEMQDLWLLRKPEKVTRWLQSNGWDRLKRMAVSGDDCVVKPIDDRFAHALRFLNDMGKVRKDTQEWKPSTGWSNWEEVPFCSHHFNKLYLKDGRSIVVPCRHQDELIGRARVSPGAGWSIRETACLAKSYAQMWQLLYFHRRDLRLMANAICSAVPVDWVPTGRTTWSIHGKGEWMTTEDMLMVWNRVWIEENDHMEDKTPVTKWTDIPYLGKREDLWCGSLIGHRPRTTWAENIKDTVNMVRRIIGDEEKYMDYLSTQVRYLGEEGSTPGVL
UniProt Q99720, sequence (whole entry, looked up): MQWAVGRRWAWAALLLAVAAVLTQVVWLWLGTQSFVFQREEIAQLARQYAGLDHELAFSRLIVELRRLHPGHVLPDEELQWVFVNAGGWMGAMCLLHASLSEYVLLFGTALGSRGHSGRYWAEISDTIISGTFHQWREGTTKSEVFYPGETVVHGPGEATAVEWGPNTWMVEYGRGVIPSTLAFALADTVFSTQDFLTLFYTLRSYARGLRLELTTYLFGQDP
UniProt P0A988, sequence (whole entry, unmodified, looked up): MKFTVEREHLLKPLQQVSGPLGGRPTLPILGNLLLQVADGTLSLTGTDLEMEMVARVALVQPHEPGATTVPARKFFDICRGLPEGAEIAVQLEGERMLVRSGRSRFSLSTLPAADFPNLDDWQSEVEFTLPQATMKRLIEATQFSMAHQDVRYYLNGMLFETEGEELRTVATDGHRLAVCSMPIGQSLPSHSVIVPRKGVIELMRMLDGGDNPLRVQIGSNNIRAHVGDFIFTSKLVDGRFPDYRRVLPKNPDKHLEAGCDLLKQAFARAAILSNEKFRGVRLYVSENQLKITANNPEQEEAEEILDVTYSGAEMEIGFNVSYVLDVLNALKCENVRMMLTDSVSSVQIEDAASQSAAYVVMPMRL

Structure (SMILES) | target | assay | test system | conditions | how to read | endpoint | value
CN(C)[C@H]1C[C@@]23CC[C@@]4(O2)C(=CC[C@]2(C)[C@@H](c5ccc6ccncc6c5)CC[C@H]24)C=C3[C@@H](O)[C@@H]1O | CHUK (Homo sapiens, UniProt O15111) | ATP probe labelling, inhibitor, KiNativ profiling |  | 1 µM |  | inhibition | 11.5%
CC#CC(=O)NC[C@H](NC(=O)[C@H](CC1CCCCC1)NC(=O)[C@H](CCC(N)=O)NC(C)=O)C(=O)N[C@@H](CC(C)C)C(=O)N[C@@H](Cc1ccccc1)C(=O)O | Beta sliding clamp (Escherichia coli, UniProt P0A988) | binding, isothermal titration calorimetry |  | 37 °C |  | -TΔS | 6.9 kcal/mol
CC(C)[C@H]1NC(=O)C[C@H]2/C=C/CCSSC[C@@H](NC1=O)C(=O)N[C@H](Cc1cccc3ccccc13)C(=O)NCC(=O)O2 | STK10 (Homo sapiens, UniProt O94804) | enzyme activity, inhibitor |  | 10 µM |  | inhibition | 16.3%
CC(C)CC(O)(CC(C)C)c1cn(C(=O)N2CCCC2)nn1 | Patatin-like phospholipase domain-containing protein 7 (Pnpla7, Mus musculus, UniProt A2AJ88) | probe labelling, inhibitor, item: Pnpla7 | mouse, brain | i.p., 0.8 mg/kg, 4 h, protein level | baseline: treated over vehicle mice, lower = stronger inhibition | activity ratio-of-ratios | 1.84
OC1Cc2ccccc2CC1N1CCC2(C=Cc3ccc(Br)cc32)CC1 (racemic) | SIGMAR1 (Homo sapiens, UniProt Q99720) |  | rat liver (sigma2), human sigma1 |  | baseline: Ki sigma2 over Ki sigma1 | selectivity ratio | 100
O=C(Cc1ccc(Cl)cc1)N1CCN[C@@H]2COC[C@H](N3CCCC3)[C@H]21 (relative stereo) | OPRK1 (Homo sapiens, UniProt P41145) |  |  | concentration not given |  | loss of binding affinity | 4 to 8 fold
O=C1NC(=O)c2c1c1cc(F)c[n+]3c1c1c2c2cc(O)ccc2[n]1[Ru-4]312([N]=C=S)[S+]3CC[S+]1CC[S+]2CC3 (stereo not shown) | PAK3 (Homo sapiens, UniProt O75914) | enzyme activity |  | 100 nM, human enzyme, added: 10 µM ATP | baseline: untreated | remaining activity | 29%
CSCC[C@@H](N)C(=O)N[C@H](C)C(=O)N[C@H](C)C(=O)N[C@@H](C(=O)N[C@H](C)C(=O)NCC(=O)N[C@H](CC(C)C)C(=O)N[C@H](Cc1ccc(O)cc1)C(=O)NCC(=O)N[C@H](CC(C)C)C(=O)NCC(=O)N[C@H](CCC(=O)O)C(=O)N[C@H](CC(=O)O)C(=O)N[C@H](CCCNC(=N)N)C(=O)N[C@H](CCC(N)=O)C(=O)N[C@H](Cc1c[nH]cn1)C(=O)N[C@H](CCCNC(=N)N)C(=O)N[C@H](CCCCN)C(=O)N[C@H](CCCCN)C(=O)N[C@H](CCC(N)=O)C(N)=O)C(C)C | Sh, DEL6-46 (Drosophila melanogaster, UniProt P08510) | ion current, blocker, inside-out patch clamp |  | +50 mV |  | Hill coefficient | 0.86
O=C(NC1CCN(c2ncnc3[nH]cnc23)CC1)c1cccc(NS(=O)(=O)c2ccc(C(F)(F)F)cc2)c1 | Genome polyprotein, NS5 methyltransferase domain (Zika virus, UniProt Q32ZE1) | NS5 enzyme activity, inhibitor |  | 1.562 µM |  | inhibition | -2.78%
CS(C)(=O)=Nc1ccc(-c2ccc(-c3nc4cc(O[C@@H]5CO[C@H]6[C@@H]5OC[C@H]6O)[nH]c4cc3F)cc2)cc1 | SRC (Homo sapiens, UniProt P12931, T341M) | enzyme activity, inhibitor |  | 10 µM |  | inhibition | -9%
N[C@H](C(=O)N1CCCC1)C1CCN(c2nccc3c(-c4ncc(Cl)cc4Cl)cccc23)CC1 | PADI4 (Homo sapiens, UniProt Q9UM07) | enzyme activity |  | 0.03932 µM, high-affinity site, added: Ca2+ 1.5 mM |  | kcat | 1.95 s⁻¹ and 1.92 s⁻¹
Fc1ccc2[nH]c(NCCCNCc3cc(Cl)cc(Cl)c3)nc2n1 | MARS2 (Homo sapiens, UniProt Q96GW9) | enzyme activity |  |  | baseline: human IC50 over T. brucei IC50 | selectivity ratio | > 2
C=CC(=O)Nc1cc(-c2ccc(C(=O)N3CCCC(O)(CC)C3)cc2)ccc1F (stereo not shown) | DNA dC->dU-editing enzyme APOBEC-3B, C-terminal domain (Homo sapiens, UniProt Q9UH17) | covalent adduct, intact protein MS, item: mass +397 Da adduct of 25735 Da |  | 500 µM, 3 h, 20-fold molar excess |  | adducted protein | 78% and 73%

Repeated from above:
Structure (SMILES) | target | assay | test system | conditions | how to read | endpoint | value
OC1Cc2ccccc2CC1N1CCC2(C=Cc3ccc(Br)cc32)CC1 (racemic) | SIGMAR1 (Homo sapiens, UniProt Q99720) |  | rat liver (sigma2), human sigma1 |  | baseline: Ki sigma2 over Ki sigma1 | selectivity ratio | 100
